Experimental data pooled from the literature.
Numbered parts are unrelated; each lists some results of a single study.

Block 1 — method: universal PBM; molecule type: double-stranded DNA, one strand shown; sample: in vitro; tested at: not given; direction: higher = stronger binding
Target: Sal-like protein 4, full length isoform B (SALL4, Homo sapiens, UniProt Q9UJQ4-2, residues 1-616)
Setting: 8-mer, flanks averaged, mean of replicates
For `CATGAAAC`, the E-score was 0.105.
`GAAACATC` has an E-score of 0.038.
With `TAATACAA` the E-score was 0.327.
`CCAGATCA` gave an E-score of 0.0179.
The E-score of `CAGAGTTC` is reported as -0.172.
For `ATGTCCGC`, the E-score was -0.0484.
`GCCAACCA` has an E-score of -0.16.
`CACGGAAC` has an E-score of 0.0654.
`CGTAGGCA` has an E-score of -0.121.
For `ACCGCCGA`, the E-score was -0.28.
For `CTATATTC`, the E-score was 0.257.
The E-score of `AAATACGA` is reported as 0.249.
`GGTATGCA` gave an E-score of -0.0202.
The E-score of `TCGTGGAA` is reported as 0.123.
`AGTCAACA` has an E-score of 0.0947.
`GGCTGAAA` gave an E-score of -0.0582.
`AACGAAAT` gave an E-score of 0.226.
`AATAAAGC` has an E-score of 0.262.
For `GTTCCAAA`, the E-score was 0.0912.
`ACACCGAC` has an E-score of -0.244.
The E-score of `GCAGGAGA` is reported as -0.0694.
The E-score of `CCCACCGG` is reported as -0.309.
`CCCCAATC` has an E-score of -0.146.
`CCCTCTTC` gave an E-score of -0.148.
The E-score of `ATCTGATG` is reported as 0.0612.

Block 2 — method: protein-binding microarray; molecule type: double-stranded DNA, one strand shown; sample: in vitro; tested at: 2200 nM top; setting: 60-bp whole probe; with: salmon DNA 0.4 mg/ml; baseline: random background probes; direction: higher = stronger binding; shared flanks, not repeated: GCCTAGCAC … GTCTTGATTCGCTTGACGCTGCTG
Target: Interferon regulatory factor 7, full length, phosphomimetic (IRF7, Homo sapiens, UniProt Q92985, residues 1-503, S471D/S472D/S475D/S476D/S477D/S483D/S484D/S487D)
Residues (chain): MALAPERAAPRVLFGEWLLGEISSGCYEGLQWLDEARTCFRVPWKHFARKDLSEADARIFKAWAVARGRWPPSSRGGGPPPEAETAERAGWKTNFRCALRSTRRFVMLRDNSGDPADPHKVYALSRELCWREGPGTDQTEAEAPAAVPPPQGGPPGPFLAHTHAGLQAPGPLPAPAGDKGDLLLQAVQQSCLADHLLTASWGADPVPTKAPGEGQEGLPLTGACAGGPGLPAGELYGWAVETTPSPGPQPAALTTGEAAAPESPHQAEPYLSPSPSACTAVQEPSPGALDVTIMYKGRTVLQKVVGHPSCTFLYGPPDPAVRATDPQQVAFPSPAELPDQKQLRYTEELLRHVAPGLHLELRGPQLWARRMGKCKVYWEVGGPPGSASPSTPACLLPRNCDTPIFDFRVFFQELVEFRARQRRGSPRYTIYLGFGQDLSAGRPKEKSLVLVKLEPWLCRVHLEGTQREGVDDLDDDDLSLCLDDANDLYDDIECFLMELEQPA
For `TTAGGTCTCGGTATAGGTTAGTGCTAG`, “fitted relative affinity” read 0.178 z-score.
`GACGGAGTGGGTATCGGGACGTGCTAG` — result for “fitted relative affinity”: -0.572 z-score.
Under “fitted relative affinity”, `TTAGGACTGGGGTATCAGTTAGTGCTA` is recorded as -0.546 z-score.
`GACGGACTGGGTCGCGGGACGTGCTAG` — result for “fitted relative affinity”: -0.885 z-score.
Under “fitted relative affinity”, `GTAGATATCAGACTGGATTAGTGCTAG` is recorded as -0.0628 z-score.
`GATGGACTGGACTATCGGGACGTGCTA` — result for “fitted relative affinity”: -0.426 z-score.
`TTAGATATGAGACTGGATTAGTGCTAG`: “fitted relative affinity” -0.588 z-score.
Under “fitted relative affinity”, `TTAGGTATCGGGTATAGGTTAGTGCTA` is recorded as 0.17 z-score.
`TCAAAAATGGCTTTGCAACTGTGCTAG` — result for “fitted relative affinity”: -0.65 z-score.
Under “fitted relative affinity”, `GACGGGCTGGACTTTCGGGACGTGCTA` is recorded as 1.65 z-score.
Under “fitted relative affinity”, `GACGGTTTCGGGTATCGGGCCGTGCTA` is recorded as 5.63 z-score.
For `TAAGGTATCGACTTTCGGTTAGTGCTA`, “fitted relative affinity” read 5.89 z-score.
`GACGGTGTCGGTTCCGGGACGTGCTAG` — result for “fitted relative affinity”: -0.2 z-score.
`TTAGGACTGGGGCTTCGGTTAGTGCTA` — result for “fitted relative affinity”: -0.653 z-score.
`GACGATTCCAGTTTCGGGACGTGCTAG` — result for “fitted relative affinity”: 4.59 z-score.
`TTAGGACTGGGCTTCGGTTAGTGCTAG` — result for “fitted relative affinity”: -0.537 z-score.

Block 3 — method: aptamer microarray, sandwich; molecule type: DNA with 2'F-ANA; sample: in vitro; tested at: 200 nM; with: Cy3 exosite-II aptamer, 400 nM; direction: higher = stronger binding; oligonucleotide: GGTTGGTGTGGTTGG
Target: Prothrombin, mature alpha-thrombin (F2, Homo sapiens, UniProt P00734)
Setting: whole 15-mer aptamer, many near background
`2'F-ANA at 4 6 7 10 14`: “mean fluorescence intensity” 60.1 a.u.
For `2'F-ANA at 1 3 5 6 11 12 13`, “mean fluorescence intensity” read 81.7 a.u.
`2'F-ANA at 1 2 3 6 8 9 11 15`: “mean fluorescence intensity” 177 a.u.
`2'F-ANA at 2 5 7 8 9 11`: “mean fluorescence intensity” 94.8 a.u.
`2'F-ANA at 1 3 4 7 11 12 13 15` — result for “mean fluorescence intensity”: 255 a.u.
`2'F-ANA at 1 2 4 5 8 11 12 14` — result for “mean fluorescence intensity”: 68.3 a.u.
`2'F-ANA at 8 9 10 11 12`: “mean fluorescence intensity” 189 a.u.
`2'F-ANA at 1 3 6 8 9 12 13 14`: “mean fluorescence intensity” 212 a.u.
`2'F-ANA at 1 3 4 6 10 11 12 13 14`: “mean fluorescence intensity” 53.6 a.u.
For `2'F-ANA at 4 5 7 9 10 13 14 15`, “mean fluorescence intensity” read 50.9 a.u.
Under “mean fluorescence intensity”, `2'F-ANA at 4 6 7 8 9 14 15` is recorded as 84.1 a.u.
For `2'F-ANA at 3 4 5 6 8 10 12 13 14 15`, “mean fluorescence intensity” read 57.2 a.u.
For `2'F-ANA at 4 8 9 11 12 15`, “mean fluorescence intensity” read 446 a.u.
`2'F-ANA at 2 3 4 5 10 11 12 14` — result for “mean fluorescence intensity”: 51.4 a.u.
Under “mean fluorescence intensity”, `2'F-ANA at 4 6 9 13 14` is recorded as 69.4 a.u.
Under “mean fluorescence intensity”, `2'F-ANA at 3 4 5 8 9 13` is recorded as 70.6 a.u.
For `2'F-ANA at 1 2 3 5 6 9 11 12 14`, “mean fluorescence intensity” read 45.7 a.u.
For `2'F-ANA at 1 5 8 11 12`, “mean fluorescence intensity” read 90.1 a.u.
For `2'F-ANA at 4 5 9 10 11 12 15`, “mean fluorescence intensity” read 49.5 a.u.
For `2'F-ANA at 2 3 7 10 12 14 15`, “mean fluorescence intensity” read 331 a.u.
For `2'F-ANA at 3 4 6 7 10 12 14 15`, “mean fluorescence intensity” read 238 a.u.

Block 4 — method: RNA Bind-n-Seq; molecule type: RNA; sample: in vitro; tested at: 1 µM; setting: whole 134-nt RNA, ends assumed; with: 150 mM KCl; baseline: input library; direction: higher = stronger binding
Target: Ras GTPase-activating protein-binding protein 1, RRM domain (G3BP1, Homo sapiens, UniProt Q13283)
Sequence of UniProt Q13283 (whole entry, looked up): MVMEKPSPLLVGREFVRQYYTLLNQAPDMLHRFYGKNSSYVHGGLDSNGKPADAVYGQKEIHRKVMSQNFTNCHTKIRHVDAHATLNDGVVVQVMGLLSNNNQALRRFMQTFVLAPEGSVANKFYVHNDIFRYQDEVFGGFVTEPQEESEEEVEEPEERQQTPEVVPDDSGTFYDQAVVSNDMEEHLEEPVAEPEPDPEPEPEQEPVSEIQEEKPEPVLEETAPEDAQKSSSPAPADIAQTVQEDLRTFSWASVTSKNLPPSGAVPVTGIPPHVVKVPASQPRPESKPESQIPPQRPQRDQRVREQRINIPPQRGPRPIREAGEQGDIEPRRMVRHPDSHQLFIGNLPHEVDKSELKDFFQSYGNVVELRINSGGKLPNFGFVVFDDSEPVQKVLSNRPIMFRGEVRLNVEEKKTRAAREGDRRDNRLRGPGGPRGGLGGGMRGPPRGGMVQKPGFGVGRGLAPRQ
Shared flanks, not repeated: GGGAGUUCUACAGUCCGACGAUC … UGGAAUUCUCGGGUGUCAAGG
`ACCAUGCCGGUGGGCAUCUUUGGGAAGUGGGGCAAGGGGGGGAUAGGGAGGGGGGUAACACUUUGGGAACAGGUGGUCCCAGGUCGUUUC` has a log2 enrichment of -0.369.
`UGUGCUACACAUCGUAUGUACCGAAUCGGGGAAAAAAAGGGGAAAAAAAGGGGAAAAAAAGGAAAGUAUUAUGUUACGCCGUUCGGAUCU` gave a log2 enrichment of 0.0907.
`AGUCCUGUGCUACACAUCGUAUGUACCGAAUCGGGUUUUUGGGAAAAAAAGGGUGGGAAAGUAUUAUGUUACGCCGUUCGGAUCUGCACU` gave a log2 enrichment of 0.44.
With `CUCAAGUCCUGUGCUACACAUCGUAUGUACCGAAUCGGAAAAAGGUUUGGAGGAAAGUAUUAUGUUACGCCGUUCGGAUCUGCACUUCCA` the log2 enrichment was -0.217.
With `UCCUGUGCUACACAUCGUAUGUACCGAAUCGGGAAAAAGGGAAAAAGGGUUUUUUUGGGAAAGUAUUAUGUUACGCCGUUCGGAUCUGCA` the log2 enrichment was 0.017.
With `UCUAUGUAGCAUCCAGGUACUACUUCCUUUGGAAUGUCAGUAUUUAAUCUGAGCAAUGCGAUUGUGGGCAGUGGAAUCCUUGGGCUUUCU` the log2 enrichment was -0.133.
`UAACUUUAGAGGAGGAUCUGAUGGAUAUGGCAGUGGACGUGGAUUUGGGGAUGGCUAUAAUGGGUAUGGAGGAGGACCUGGAUGUGGCAA` has a log2 enrichment of -0.407.
`GUCCUGUGCUACACAUCGUAUGUACCGAAUCGGGCCCCCCGGCCCCCCGGCCCCCCGGGAAAGUAUUAUGUUACGCCGUUCGGAUCUGCA` gave a log2 enrichment of -0.453.
With `GUCCUGUGCUACACAUCGUAUGUACCGAAUCGGGGUUUUUUUGGGGUGGGGAAAGGGGAAAGUAUUAUGUUACGCCGUUCGGAUCUGCAC` the log2 enrichment was 1.21.
`UGUGCUACACAUCGUAUGUACCGAAUCGGGGUUUUUGGGGUUUUUUUGGGGUUUUUUUGGGGAAAGUAUUAUGUUACGCCGUUCGGAUCU` has a log2 enrichment of 1.34.
